Assay results of several laboratories.
Every numbered part comes from another study and shows a few of its results, in no order.

Sample 1
Target: Histone acetyltransferase KAT6A, both winged helices, GST fusion (KAT6A, Homo sapiens, UniProt Q92794, residues 1-181)
Method: protein binding microarray
Form: double-stranded DNA, one strand shown
Sample: in vitro
Tested at: not given
Notes: 8-mer, flanks averaged, mean of 2 arrays, mostly near background
Relative to: not given
Reading: higher = stronger binding
Construct (chain): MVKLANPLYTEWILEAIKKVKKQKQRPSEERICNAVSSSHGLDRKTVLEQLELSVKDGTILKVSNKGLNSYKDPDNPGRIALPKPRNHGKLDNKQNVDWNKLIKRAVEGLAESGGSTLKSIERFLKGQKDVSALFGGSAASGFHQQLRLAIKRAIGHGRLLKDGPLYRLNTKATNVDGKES
Sequence | E-score
GGATCTCA | -0.0296
CGGTTCTC | 0.141
CGAAGCTC | -0.0636
ACGATACA | -0.0978
CCAGGGCA | -0.106
CTTACAGC | -0.019
GGTTCGTA | -0.0373
GCCCAGCA | -0.116
CAGTCACG | 0.0508
CCACTCCG | 0.245
GAAAATGC | -0.064
ATCTTCAA | -0.0783
CTGCAGTA | -0.0977
CCGGCATC | 0.264
AGAGGTAA | -0.175
TACCGACA | 0.0602
ACTAAAGC | -0.0357
TTACCTAA | -0.198
ATTCGCAG | -0.0358
CGGGGATA | 0.113
CGTCTTGA | 0.0116
CTGATAAA | -0.138
ATGGGAAA | -0.152
CGGACTAC | 0.117
TAAGGCCA | -0.0504

Sample 2
Target: RNA binding protein fox-1 homolog 2, RRM domain, GST-SBP tag (RBFOX2, Homo sapiens, UniProt O43251-10, residues 100-194)
Method: RNA Bind-n-Seq
Form: RNA
Sample: in vitro
Tested at: 365 nM
Notes: natural RNA segment, single round, ends assumed
Relative to: no-protein control
Reading: higher = stronger binding
Constant ends, left off below: GGGAGUUCUACAGUCCGACGAUC … UGGAAUUCUCGGGUGCCAA
Target sequence (chain): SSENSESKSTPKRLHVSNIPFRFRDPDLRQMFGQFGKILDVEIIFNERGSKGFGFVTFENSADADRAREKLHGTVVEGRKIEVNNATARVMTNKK
Sequence | RBNS enrichment (R)
CGUUUGCAGAAGGGGGUCUCUUCUUCCAGGUAGCUGAAAGGGGAAGACCUGACGUACUCUGGUUAGGUUAGGACUUGCCCUCGUGGUGGAAACUUUUCUUAAAAAGUUAU | 0.258
CAGUAUUCUGUUCCCCAGGCAUACAGCAUCAUAUAUUAAAGCCACAGCAGAAGAGGAAUGUCGCCCACUGAGGCCACCCAGAUGCAGAGUCUAGGAUUCCUUGCCCACUG | 1.1
UUGUCCUCCAGACCAGGCAGCAACAUGGUAUUUAUUUUAAUCAUUAAAGUACAACAUGAGUAGUACAGGUGUAAUUAUGGAUCAUUUUCUAGCAUAGUAUUUCAUACAAC | 0.319
UAUCUGAUAUUUUUCCAAAUUAAAUAAGUUAGAGAAUGCAAUCGGCGGAUGUGGGGGCGGCCAUCUGGUAGUGGAAAGCUGUAGCGAUCUGAGUACAGCUUAGAUGUUAG | 3.9
AGUCGAUUUCUAGAAUCAAGUUUUAGAGUUCGGCUGAUGCAUCUGCCUGGGGACCUCAGAUGGGAGGAGUGUGUCAGUUGUACCCCGACAGAAAUGUCUCUGGGAUCUGU | 0.419
CUGUACCGACACCCCUACAGGAGAAGCUCUGGGACUGGGGCAGCAGCAAGGCGCCCAUGCCACACACCGUCUCUCGAGGAAACGCGGUUCAGCGAUUCUUUGACUGCGGA | 0.302
CCUGUCUGGGAAAAGGUCACUGGACCUGGAAGGGUCCCCAGGGUCCCCUGACUCCCGUCUCCAUCUGUCACGUGGUUCACCAUCAUCAGGCACCAGGCGCAAACUGCUUC | 0.333
UUUCCCACUUUCUGGGUGGCUUUUUGGGUCCACCCAGCCAGGAUGCUGCAGGCCAAGCUGGGUGUGGUAUUUAGGGCAGCUCAGCAGGGGGAACUUGUCCCCAUGGUCAG | 0.45

Sample 3
Target: Sal-like protein 4, full length isoform A (SALL4, Homo sapiens, UniProt Q9UJQ4, residues 1-1053)
UniProt Q9UJQ4, sequence (whole entry, looked up): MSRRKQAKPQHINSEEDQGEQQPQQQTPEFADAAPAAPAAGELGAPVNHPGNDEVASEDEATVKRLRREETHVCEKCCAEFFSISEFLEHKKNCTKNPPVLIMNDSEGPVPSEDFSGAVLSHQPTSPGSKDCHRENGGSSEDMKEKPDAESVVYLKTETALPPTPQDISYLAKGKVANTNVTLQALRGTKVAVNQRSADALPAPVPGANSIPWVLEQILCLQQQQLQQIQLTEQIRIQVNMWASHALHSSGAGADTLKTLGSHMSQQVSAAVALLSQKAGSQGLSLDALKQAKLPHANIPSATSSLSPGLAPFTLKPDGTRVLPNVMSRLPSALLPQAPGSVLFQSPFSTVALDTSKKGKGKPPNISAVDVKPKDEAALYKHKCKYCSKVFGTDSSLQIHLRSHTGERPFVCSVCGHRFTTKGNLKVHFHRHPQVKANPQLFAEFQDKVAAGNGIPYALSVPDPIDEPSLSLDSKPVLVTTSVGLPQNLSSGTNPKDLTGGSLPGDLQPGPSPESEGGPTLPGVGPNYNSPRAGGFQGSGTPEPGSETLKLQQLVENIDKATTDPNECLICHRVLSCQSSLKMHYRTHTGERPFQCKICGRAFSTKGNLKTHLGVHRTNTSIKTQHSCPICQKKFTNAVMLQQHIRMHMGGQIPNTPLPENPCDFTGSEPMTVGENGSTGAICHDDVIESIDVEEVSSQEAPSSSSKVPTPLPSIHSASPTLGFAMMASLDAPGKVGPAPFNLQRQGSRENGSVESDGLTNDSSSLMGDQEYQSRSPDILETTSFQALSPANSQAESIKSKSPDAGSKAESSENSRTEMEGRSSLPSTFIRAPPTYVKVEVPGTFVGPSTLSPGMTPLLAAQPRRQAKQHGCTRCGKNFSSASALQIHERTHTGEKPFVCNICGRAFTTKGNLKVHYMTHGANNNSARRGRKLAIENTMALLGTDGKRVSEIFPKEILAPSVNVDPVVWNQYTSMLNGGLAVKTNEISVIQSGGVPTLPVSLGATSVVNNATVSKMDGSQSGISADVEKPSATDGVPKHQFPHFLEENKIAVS
Method: universal PBM
Form: double-stranded DNA, one strand shown
Sample: in vitro
Tested at: 600 nM
Notes: 8-mer, flanks averaged, mean of replicates
Reading: higher = stronger binding
Sequence | E-score
ATACGCCA | 0.0408
CAAGCGAG | 0.02
GCCTGCAA | -0.11
ACTGGCAT | -0.118
CTAAAGCC | -0.0727
CGTCCACG | -0.235
ACTCGAGT | 0.0417
GCTAGCGA | -0.156
GTCTGTTA | 0.158
GTCGTAGA | 0.00911
CCAAGTGC | -0.179
AATTAATT | 0.38
ACACATCG | 0.068
TGGGGTAA | -0.0814
CAGTTTAG | 0.00485
ACCCACCG | -0.164
CACATCAA | 0.0803
CCTCTTTA | 0.0548
ACCTTGTA | 0.231
ATTATCCG | 0.188
ACCAAGTA | 0.0781
CCTATCAG | -0.105
AGGATTCC | -0.166
ACGGTCAT | -0.0056
AGATGTGC | -0.00279

Sample 4
Target: Fragile X messenger ribonucleoprotein 1, C-terminal low-complexity region (Fmr1, Mus musculus, UniProt P35922)
Method: RNA Bind-n-Seq
Form: RNA
Sample: in vitro
Tested at: 200 nM
Notes: whole 134-nt RNA, ends assumed
With: 150 mM KCl
Relative to: input library
Reading: higher = stronger binding
Constant ends, left off below: GGGAGUUCUACAGUCCGACGAUC … UGGAAUUCUCGGGUGUCAAGG
Sequence | log2 enrichment
AAGUCCUGUGCUACACAUCGUAUGUACCGAAUCGGAAAAAGGAAAAAGGAAAAAGGGAAAGUAUUAUGUUACGCCGUUCGGAUCUGCACU | -0.844
GUCCUGUGCUACACAUCGUAUGUACCGAAUCGGGAAAGGGAAAAAAAGGGUUUUUGGGAAAGUAUUAUGUUACGCCGUUCGGAUCUGCAC | -0.372
AGUCCUGUGCUACACAUCGUAUGUACCGAAUCAAACCCAAACCCAAAUUUUUUUAAAAAAGUAUUAUGUUACGCCGUUCGGAUCUGCACU | -0.296
UCACCUGUUUACAGUGAAUCAGACGUCCCAAUAGAUGUGGAGACGGUCACAUCAACGCCUAUGCCACUCUAUGACAAUCAGAAGGCACGC | -1.27
UGGCCCUGGUGGCAUGCGGGGAGGAAGAGGUGGCCUCAUGGAUCGCGGUGGUCCCGGUGGAAUGUUCAGAGGUGGCCGUGGUGGAGACAG | -0.106
ACCAUGCAGGUGGGCAUCUUUGGGAAGUGGGGCAAGGGGGGGAUAGGGAGGGGGGUAACACUUUGGGAACAGGUGGUCCCAGGCCGUUUC | 0.735
UCAAGUCCUGUGCUACACAUCGUAUGUACCGAAUCGGAAAGGAAAAAGGAAAGGAAAGUAUUAUGUUACGCCGUUCGGAUCUGCACUUCC | -0.768
AAGUCCUGUGCUACACAUCGUAUGUACCGAAUCGGGCCCCGGGGCCCCGGGCCCCGGAAAGUAUUAUGUUACGCCGUUCGGAUCUGCACU | 0.942
CCUGUGCUACACAUCGUAUGUACCGAAUCGGGGCCCCCCGGGCCCCCCGGGGCCCCCCGGGAAAGUAUUAUGUUACGCCGUUCGGAUCUG | -1.02

Excerpt of the above (sample 4):
Sequence | log2 enrichment
GUCCUGUGCUACACAUCGUAUGUACCGAAUCGGGAAAGGGAAAAAAAGGGUUUUUGGGAAAGUAUUAUGUUACGCCGUUCGGAUCUGCAC | -0.372
AGUCCUGUGCUACACAUCGUAUGUACCGAAUCAAACCCAAACCCAAAUUUUUUUAAAAAAGUAUUAUGUUACGCCGUUCGGAUCUGCACU | -0.296
UCACCUGUUUACAGUGAAUCAGACGUCCCAAUAGAUGUGGAGACGGUCACAUCAACGCCUAUGCCACUCUAUGACAAUCAGAAGGCACGC | -1.27
UGGCCCUGGUGGCAUGCGGGGAGGAAGAGGUGGCCUCAUGGAUCGCGGUGGUCCCGGUGGAAUGUUCAGAGGUGGCCGUGGUGGAGACAG | -0.106
ACCAUGCAGGUGGGCAUCUUUGGGAAGUGGGGCAAGGGGGGGAUAGGGAGGGGGGUAACACUUUGGGAACAGGUGGUCCCAGGCCGUUUC | 0.735
UCAAGUCCUGUGCUACACAUCGUAUGUACCGAAUCGGAAAGGAAAAAGGAAAGGAAAGUAUUAUGUUACGCCGUUCGGAUCUGCACUUCC | -0.768
AAGUCCUGUGCUACACAUCGUAUGUACCGAAUCGGGCCCCGGGGCCCCGGGCCCCGGAAAGUAUUAUGUUACGCCGUUCGGAUCUGCACU | 0.942
CCUGUGCUACACAUCGUAUGUACCGAAUCGGGGCCCCCCGGGCCCCCCGGGGCCCCCCGGGAAAGUAUUAUGUUACGCCGUUCGGAUCUG | -1.02
